Assay results of several laboratories.
Each numbered part is a random draw from the data of one study; scales do not carry over between parts.

Series 1
Target: Histone acetyltransferase KAT6A, winged helix 1, GST fusion (KAT6A, Homo sapiens, UniProt Q92794, residues 1-85)
Technique: protein binding microarray
Form: double-stranded DNA, one strand shown
Medium: in vitro
Concentration: not given
Notes: 8-mer, flanks averaged, mean of 2 arrays, mostly near background
Baseline: not given
Reading: higher = stronger binding
Quantity: E-score
Construct (chain): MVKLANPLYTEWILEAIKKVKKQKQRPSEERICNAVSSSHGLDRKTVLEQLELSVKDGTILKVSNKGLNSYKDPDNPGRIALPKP
CATCAGAA: -0.157
ACGCCGTA: 0.356
GGTTATCA: -0.123
GGGAGAGA: -0.135
CTTATCAC: -0.0893
ACGGTTGG: 0.0851
GTGTACGA: 0.0754
GCGTCACA: 0.0406
ATTACTTA: -0.0197
ATTGCGGA: 0.131

Series 2
Target: TAR DNA-binding protein 43, full length, His tag (TARDBP, Homo sapiens, UniProt Q13148, residues 1-414)
Technique: RNA Bind-n-Seq
Form: RNA
Medium: in vitro
Concentration: 20 nM
Notes: 6-mer, flanks averaged, single round
With: 150 mM LiCl
Baseline: input library
Reading: higher = stronger binding
Quantity: 6-mer enrichment (R)
GGCAAA: 0.952
CUUGUG: 1.21
ACGAGU: 0.928
GGUGAA: 1.17
UAAGGC: 0.879
GCGAUU: 0.906
UAGGAA: 0.897
AACUAG: 0.841
CGCGGU: 1

Series 3
Target: Prothrombin, mature alpha-thrombin (F2, Homo sapiens, UniProt P00734)
Technique: aptamer microarray, sandwich
Form: DNA with 2'F-ANA
Medium: in vitro
Concentration: 200 nM
Notes: whole 15-mer aptamer, many near background
With: Cy3 exosite-II aptamer, 400 nM
Reading: higher = stronger binding
Quantity: mean fluorescence intensity
Strand: GGTTGGTGTGGTTGG
2'F-ANA at 2 4 6 10 11 13 14 15: 60 a.u.
2'F-ANA at 4 6 7 10 12 13 14 15: 53.8 a.u.
2'F-ANA at 2 8 10 11 12 13: 145 a.u.
2'F-ANA at 2 3 8 9 10 12 14 15: 314 a.u.
2'F-ANA at 1 3 5 6 9 14 15: 48.9 a.u.
2'F-ANA at 2 4 5 6 11 13 14 15: 50.6 a.u.
2'F-ANA at 3 4 5 6 7 10 14 15: 48.4 a.u.
2'F-ANA at 1 2 3 5 9 11 12 15: 90 a.u.
2'F-ANA at 1 2 3 7 11 12 14 15: 90.8 a.u.

Mixed results
PhoQ, residues 284 288 289 292 302 303 ALAMYF
fold induction (PhoP, residues 12 14 15 18 19 LHSVQ (Escherichia coli, UniProt P23836); Sort-seq, item: YFP reporter; E. coli; PhoQ-PhoP variant library, with: 10 µM Mg2+; baseline: high Mg2+ state, higher = stronger signaling): 19.2

Excerpt of the above (series 3):
2'F-ANA at 2 4 6 10 11 13 14 15: 60 a.u.
2'F-ANA at 3 4 5 6 7 10 14 15: 48.4 a.u.
